# Results of several laboratories.
# Numbered parts are unrelated; each lists some results of a single study. Several values in a cell are separate wells, animals, samples, runs or records.
# UniProt P11309, sequence (whole entry, looked up): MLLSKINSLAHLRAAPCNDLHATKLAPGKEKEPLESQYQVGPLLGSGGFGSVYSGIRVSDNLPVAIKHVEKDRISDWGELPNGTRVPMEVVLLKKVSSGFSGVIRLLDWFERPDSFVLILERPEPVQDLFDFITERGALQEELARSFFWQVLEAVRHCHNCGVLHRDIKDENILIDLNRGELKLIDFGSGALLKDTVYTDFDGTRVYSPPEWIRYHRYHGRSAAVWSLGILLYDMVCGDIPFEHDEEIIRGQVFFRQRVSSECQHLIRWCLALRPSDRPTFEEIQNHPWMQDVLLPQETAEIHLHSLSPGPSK
# UniProt P10721, sequence (whole entry, unmodified, looked up): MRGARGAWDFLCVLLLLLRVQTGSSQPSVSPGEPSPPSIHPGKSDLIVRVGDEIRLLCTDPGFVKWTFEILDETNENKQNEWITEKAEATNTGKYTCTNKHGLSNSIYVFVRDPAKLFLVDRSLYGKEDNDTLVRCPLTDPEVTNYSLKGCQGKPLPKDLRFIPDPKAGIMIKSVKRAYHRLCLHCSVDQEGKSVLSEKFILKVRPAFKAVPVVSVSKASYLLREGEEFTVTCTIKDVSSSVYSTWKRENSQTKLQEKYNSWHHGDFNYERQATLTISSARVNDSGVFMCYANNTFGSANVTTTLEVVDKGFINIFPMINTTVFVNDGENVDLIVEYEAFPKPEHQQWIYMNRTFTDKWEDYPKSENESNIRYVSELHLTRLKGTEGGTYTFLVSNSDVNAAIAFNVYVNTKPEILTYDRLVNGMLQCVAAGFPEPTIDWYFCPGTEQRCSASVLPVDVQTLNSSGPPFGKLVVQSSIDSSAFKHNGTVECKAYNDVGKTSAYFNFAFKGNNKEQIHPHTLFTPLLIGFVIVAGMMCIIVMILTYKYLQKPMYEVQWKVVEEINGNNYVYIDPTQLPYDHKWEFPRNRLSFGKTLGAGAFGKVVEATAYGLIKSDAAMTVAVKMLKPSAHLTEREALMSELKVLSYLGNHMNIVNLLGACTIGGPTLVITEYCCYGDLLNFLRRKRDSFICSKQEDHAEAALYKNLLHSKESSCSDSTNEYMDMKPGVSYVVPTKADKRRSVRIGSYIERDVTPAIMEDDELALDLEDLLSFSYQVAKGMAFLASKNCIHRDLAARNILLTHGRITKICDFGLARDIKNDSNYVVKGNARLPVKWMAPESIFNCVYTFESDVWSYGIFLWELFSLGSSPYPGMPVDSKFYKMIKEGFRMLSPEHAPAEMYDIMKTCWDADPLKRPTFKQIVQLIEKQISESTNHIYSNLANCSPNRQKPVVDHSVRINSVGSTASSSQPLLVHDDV
# UniProt Q13555, sequence (whole entry, looked up): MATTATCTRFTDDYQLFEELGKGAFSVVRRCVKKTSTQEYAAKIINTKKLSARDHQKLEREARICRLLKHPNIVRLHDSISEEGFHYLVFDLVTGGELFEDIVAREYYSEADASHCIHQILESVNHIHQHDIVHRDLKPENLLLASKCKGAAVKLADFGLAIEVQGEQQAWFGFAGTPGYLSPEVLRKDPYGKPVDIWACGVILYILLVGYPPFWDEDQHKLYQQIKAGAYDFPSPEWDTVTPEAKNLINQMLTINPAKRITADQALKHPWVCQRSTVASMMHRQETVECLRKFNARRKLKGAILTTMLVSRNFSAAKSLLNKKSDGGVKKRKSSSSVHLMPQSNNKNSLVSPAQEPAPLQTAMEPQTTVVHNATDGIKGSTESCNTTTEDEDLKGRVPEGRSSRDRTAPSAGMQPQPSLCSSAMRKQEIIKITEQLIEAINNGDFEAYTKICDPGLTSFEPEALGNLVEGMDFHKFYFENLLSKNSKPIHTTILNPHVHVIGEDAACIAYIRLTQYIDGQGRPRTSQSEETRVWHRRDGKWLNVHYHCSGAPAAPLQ
# UniProt Q96GD4, sequence (whole entry, looked up): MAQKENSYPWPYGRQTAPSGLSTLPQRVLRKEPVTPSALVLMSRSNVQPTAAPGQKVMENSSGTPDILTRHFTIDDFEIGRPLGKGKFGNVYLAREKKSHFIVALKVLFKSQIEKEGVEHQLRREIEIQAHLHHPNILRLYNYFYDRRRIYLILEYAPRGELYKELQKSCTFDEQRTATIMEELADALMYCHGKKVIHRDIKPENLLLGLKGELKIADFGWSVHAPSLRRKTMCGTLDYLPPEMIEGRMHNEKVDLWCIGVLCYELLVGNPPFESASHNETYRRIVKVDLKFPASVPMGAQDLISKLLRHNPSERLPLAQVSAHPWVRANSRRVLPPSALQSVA
# UniProt Q8N4C8, sequence (whole entry, looked up): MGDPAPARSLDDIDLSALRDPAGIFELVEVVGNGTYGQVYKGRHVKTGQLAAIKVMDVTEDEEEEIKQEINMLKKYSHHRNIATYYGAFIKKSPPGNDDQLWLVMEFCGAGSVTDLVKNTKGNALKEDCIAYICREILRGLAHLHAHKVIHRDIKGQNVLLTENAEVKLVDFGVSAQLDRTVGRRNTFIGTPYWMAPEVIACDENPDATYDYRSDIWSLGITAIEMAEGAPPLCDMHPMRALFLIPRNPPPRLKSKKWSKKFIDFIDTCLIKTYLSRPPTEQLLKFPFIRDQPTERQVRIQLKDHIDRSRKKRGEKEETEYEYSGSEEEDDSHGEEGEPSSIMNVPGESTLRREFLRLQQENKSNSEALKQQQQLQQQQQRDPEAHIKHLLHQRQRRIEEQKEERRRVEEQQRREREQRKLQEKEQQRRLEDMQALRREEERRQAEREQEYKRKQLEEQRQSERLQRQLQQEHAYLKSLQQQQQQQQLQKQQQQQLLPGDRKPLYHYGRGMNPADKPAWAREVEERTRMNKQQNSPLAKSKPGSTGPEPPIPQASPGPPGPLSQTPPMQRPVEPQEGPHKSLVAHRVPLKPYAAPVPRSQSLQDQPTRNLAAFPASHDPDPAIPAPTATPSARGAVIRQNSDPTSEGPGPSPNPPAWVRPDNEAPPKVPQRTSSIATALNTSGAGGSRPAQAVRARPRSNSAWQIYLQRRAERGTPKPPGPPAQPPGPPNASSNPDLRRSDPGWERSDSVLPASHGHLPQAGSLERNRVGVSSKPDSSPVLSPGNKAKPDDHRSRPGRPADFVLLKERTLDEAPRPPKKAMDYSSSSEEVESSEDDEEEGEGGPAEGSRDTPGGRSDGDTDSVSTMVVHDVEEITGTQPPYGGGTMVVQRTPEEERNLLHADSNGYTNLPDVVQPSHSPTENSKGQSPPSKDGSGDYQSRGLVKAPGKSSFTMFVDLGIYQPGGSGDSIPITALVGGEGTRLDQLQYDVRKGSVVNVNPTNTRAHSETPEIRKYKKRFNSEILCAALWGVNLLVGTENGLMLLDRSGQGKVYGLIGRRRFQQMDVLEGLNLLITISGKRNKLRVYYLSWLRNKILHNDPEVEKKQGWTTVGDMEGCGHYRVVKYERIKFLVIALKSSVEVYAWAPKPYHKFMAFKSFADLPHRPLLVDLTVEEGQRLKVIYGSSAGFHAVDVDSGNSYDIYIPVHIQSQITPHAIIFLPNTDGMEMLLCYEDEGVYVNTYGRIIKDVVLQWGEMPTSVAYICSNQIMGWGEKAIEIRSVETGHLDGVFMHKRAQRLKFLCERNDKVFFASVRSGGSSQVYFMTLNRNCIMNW
# UniProt P20794, sequence (whole entry, looked up): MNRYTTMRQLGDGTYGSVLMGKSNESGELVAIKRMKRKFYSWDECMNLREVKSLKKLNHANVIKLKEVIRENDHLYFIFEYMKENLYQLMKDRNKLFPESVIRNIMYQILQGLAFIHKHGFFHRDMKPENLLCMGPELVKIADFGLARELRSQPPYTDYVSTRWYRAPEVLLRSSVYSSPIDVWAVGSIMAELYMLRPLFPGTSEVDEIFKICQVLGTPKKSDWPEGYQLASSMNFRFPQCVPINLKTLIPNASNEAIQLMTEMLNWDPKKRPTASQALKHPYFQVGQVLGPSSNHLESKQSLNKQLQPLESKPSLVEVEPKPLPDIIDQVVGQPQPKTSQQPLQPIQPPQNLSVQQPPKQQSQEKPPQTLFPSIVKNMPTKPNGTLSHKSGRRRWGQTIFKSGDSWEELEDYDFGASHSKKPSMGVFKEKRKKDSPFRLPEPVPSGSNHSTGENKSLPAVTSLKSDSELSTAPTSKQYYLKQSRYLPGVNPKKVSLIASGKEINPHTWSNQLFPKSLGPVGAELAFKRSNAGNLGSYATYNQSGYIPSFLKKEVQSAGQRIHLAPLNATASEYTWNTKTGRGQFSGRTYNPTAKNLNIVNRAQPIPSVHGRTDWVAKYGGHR

# Set 1
# Structure (SMILES): CCC1(c2cccc(-c3cn(C)nc3C)c2)C2=C(Nc3n[nH]cc31)C(F)C(C)(C)CC2=O (single isomer, unassigned)
# Tested at: 1 µM
target,effect on,method,relative to,remaining binding [%]
"MAK (Homo sapiens, UniProt P20794)",kinase binding,KINOMEscan,DMSO control,85
"ERBB4 (Homo sapiens, UniProt Q15303)",binding,competition with immobilised ligand,,100
"CAMK2G (Homo sapiens, UniProt Q13555)",kinase binding,KINOMEscan,DMSO control,100
"MAP3K5 (Homo sapiens, UniProt Q99683)",binding,competition with immobilised ligand,,95
"CHEK2 (Homo sapiens, UniProt O96017)",kinase binding,KINOMEscan,DMSO control,100
"Aurora kinase B (AURKB, Homo sapiens, UniProt Q96GD4)",binding,competition with immobilised ligand,,65
"MINK1 (Homo sapiens, UniProt Q8N4C8)",kinase binding,KINOMEscan,DMSO control,92
"NUAK2 (Homo sapiens, UniProt Q9H093)",kinase binding,KINOMEscan,DMSO control,100
"SRPK2 (Homo sapiens, UniProt P78362)",binding,competition with immobilised ligand,,88
"Macrophage colony-stimulating factor 1 receptor, autoinhibited (CSF1R, Homo sapiens, UniProt P07333)",kinase binding,KINOMEscan,DMSO control,93
"LIM domain kinase 2 (LIMK2, Homo sapiens, UniProt P53671)",kinase binding,KINOMEscan,DMSO control,95
"KIT (Homo sapiens, UniProt P10721, D816H)",binding,competition with immobilised ligand,,100
"PIM1 (Homo sapiens, UniProt P11309)",kinase binding,KINOMEscan,DMSO control,100
"AKT2 (Homo sapiens, UniProt P31751)",kinase binding,KINOMEscan,DMSO control,100

# Set 2
# SMILES: Cc1ccc(O)c(C)c1-c1cnc2[nH]c(-c3cnc(N4CCC5(CC4)CC(N4CCN(c6ccc(N[C@H]7CCC(=O)N(C)C7=O)cc6F)CC4)CO5)nc3)cc2c1C#N (single isomer, unassigned)
# PKMYT1: Membrane-associated tyrosine- and threonine-specific cdc2-inhibitory kinase (PKMYT1, Homo sapiens, UniProt Q99640)
# UniProt Q99640, sequence (whole entry, looked up): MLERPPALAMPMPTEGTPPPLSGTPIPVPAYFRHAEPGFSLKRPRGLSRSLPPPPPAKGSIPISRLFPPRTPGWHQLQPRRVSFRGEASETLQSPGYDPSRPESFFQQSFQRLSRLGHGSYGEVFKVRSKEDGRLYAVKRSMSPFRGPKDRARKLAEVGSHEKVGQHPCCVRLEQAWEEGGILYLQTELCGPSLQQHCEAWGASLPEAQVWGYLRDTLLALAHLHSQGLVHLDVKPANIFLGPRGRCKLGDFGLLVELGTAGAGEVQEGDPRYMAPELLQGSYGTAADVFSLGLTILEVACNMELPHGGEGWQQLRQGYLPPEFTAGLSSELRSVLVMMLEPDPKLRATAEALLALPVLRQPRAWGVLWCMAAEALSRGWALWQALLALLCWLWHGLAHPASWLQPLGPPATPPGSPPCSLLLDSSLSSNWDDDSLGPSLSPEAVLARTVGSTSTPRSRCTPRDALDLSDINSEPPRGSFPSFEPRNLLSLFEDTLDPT
tested on,test,setting,inhibition
HCC1569,"automated capillary immunoblot, measured: CDK1 phospho-Thr14","333.33 nM, 24 h",77.8%
PKMYT1,"kinase activity, inhibitor",0.3333 µM,96.8% and 98%
HCC1569,"automated capillary immunoblot, measured: CDK1 phospho-Thr14","1000 nM, 24 h",92.6%
PKMYT1,"enzyme activity, inhibitor",12.35 nM,57.8% and 60.2%
PKMYT1,"enzyme activity, inhibitor",4.12 nM,27.6% and 31.3%
HCC1569,"automated capillary immunoblot, measured: CDK1 phospho-Thr14","0.46 nM, 24 h",-3.77%
HCC1569,"automated capillary immunoblot, measured: CDK1 phospho-Thr14","12.35 nM, 24 h",24.9%
HCC1569,"automated capillary immunoblot, measured: CDK1 phospho-Thr14","1.37 nM, 24 h",7.8%

# Set 3
# SMILES: CCN1/C(=C/C=C2\CCCC(/C=C/C3=[N+](CC)c4ccccc4C3(C)C)=C2NCCCCCCCCN2CCC(Nc3nc4ccccc4n3Cc3ccc(F)cc3)CC2)C(C)(C)c2ccccc21
# Cell line: U-87 MG
# Tested at: concentration not given
# Relative to: DMSO
measured,log2 fold change
LTBP2 mRNA,-1.65
HSPBAP1 mRNA,1.32
NFIC mRNA,-0.969
CEP85 mRNA,-1.08
KCP mRNA,2.41
GEMIN4 mRNA,-0.846
CCDC34 mRNA,-1.5
WHRN mRNA,1.39
RPS10-NUDT3 mRNA,6.17
ASF1B mRNA,-1.7
STK24 mRNA,0.861

# Set 4
# Cell line: MDA-MB-231
# Effect on: cell viability
# Method: CellCounting-Lite
# Tested at: 74.07 nM
# Temperature: 37 °C
# Reading: higher = more viable cells
SMILES,luminescence signal
CC(=O)N1CCN(c2nc(NCc3nc4cc(Cl)c(Cl)cc4[nH]3)c3ncn(-c4cnn(C)c4)c3n2)CC1,500000 a.u. and 448000 a.u. and 477000 a.u.
CCCCOc1nc(NCc2nc3cc(Cl)c(Cl)cc3[nH]2)c2ncn(CC)c2n1,421000 a.u. and 562000 a.u. and 627000 a.u.
CCn1cnc2c(NCc3nc4cc(Cl)c(Cl)cc4[nH]3)nc(N3CCN(S(C)(=O)=O)CC3)nc21,167000 a.u. and 146000 a.u. and 138000 a.u.
CCn1cnc2c(NCc3nc4cc(Cl)c(Cl)cc4[nH]3)nc(N3CCn4ncnc4C3)nc21,61100 a.u. and 31300 a.u. and 48400 a.u.
CCn1cnc2c(NCc3nc4cc(Cl)c(Cl)cc4[nH]3)nc(N3CCN(C(=O)[C@H](C)NC(C)=O)CC3)nc21,309000 a.u. and 233000 a.u. and 291000 a.u.
Cn1cc(-n2cnc3c(NCc4nc5cc(Cl)c(Cl)cc5[nH]4)nc(N4CCNCC4)nc32)cn1,240000 a.u. and 186000 a.u. and 224000 a.u.
CC(=O)N1CCN(c2nc(NCc3nc4cc(Cl)c(Cl)cc4[nH]3)c3ncn(C(C)C)c3n2)CC1,499000 a.u. and 515000 a.u. and 508000 a.u.
CCn1cnc2c(NCc3nc4cc(Cl)c(Cl)cc4[nH]3)nc(N3CCC(NC(C)=O)CC3)nc21,429000 a.u. and 493000 a.u. and 414000 a.u.
CCn1cnc2c(NCc3nc4cc(F)c(F)cc4[nH]3)nc(N3CCn4ncnc4C3)nc21,398000 a.u. and 392000 a.u. and 430000 a.u.

# Excerpt of the above (set 1):
target,effect on,method,relative to,remaining binding [%]
"NUAK2 (Homo sapiens, UniProt Q9H093)",kinase binding,KINOMEscan,DMSO control,100
"SRPK2 (Homo sapiens, UniProt P78362)",binding,competition with immobilised ligand,,88
"Macrophage colony-stimulating factor 1 receptor, autoinhibited (CSF1R, Homo sapiens, UniProt P07333)",kinase binding,KINOMEscan,DMSO control,93
